Measurements of several laboratories.
Protocols differ between the studies behind these lines.
Sequence of UniProt P10619 (whole entry, looked up): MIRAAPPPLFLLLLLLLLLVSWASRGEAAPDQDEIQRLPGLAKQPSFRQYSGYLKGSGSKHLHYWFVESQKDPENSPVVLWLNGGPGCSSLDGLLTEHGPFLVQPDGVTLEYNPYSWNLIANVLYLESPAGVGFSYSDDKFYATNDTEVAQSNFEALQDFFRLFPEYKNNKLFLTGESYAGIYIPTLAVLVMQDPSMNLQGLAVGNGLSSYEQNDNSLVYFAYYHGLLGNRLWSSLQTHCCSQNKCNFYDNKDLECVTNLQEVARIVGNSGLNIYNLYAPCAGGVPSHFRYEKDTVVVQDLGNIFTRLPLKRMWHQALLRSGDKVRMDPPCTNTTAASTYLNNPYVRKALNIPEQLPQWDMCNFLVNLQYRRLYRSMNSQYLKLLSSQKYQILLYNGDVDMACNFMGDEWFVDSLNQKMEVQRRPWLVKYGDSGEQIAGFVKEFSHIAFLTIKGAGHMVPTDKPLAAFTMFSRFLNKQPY
Sequence of UniProt Q15746 (whole entry, looked up): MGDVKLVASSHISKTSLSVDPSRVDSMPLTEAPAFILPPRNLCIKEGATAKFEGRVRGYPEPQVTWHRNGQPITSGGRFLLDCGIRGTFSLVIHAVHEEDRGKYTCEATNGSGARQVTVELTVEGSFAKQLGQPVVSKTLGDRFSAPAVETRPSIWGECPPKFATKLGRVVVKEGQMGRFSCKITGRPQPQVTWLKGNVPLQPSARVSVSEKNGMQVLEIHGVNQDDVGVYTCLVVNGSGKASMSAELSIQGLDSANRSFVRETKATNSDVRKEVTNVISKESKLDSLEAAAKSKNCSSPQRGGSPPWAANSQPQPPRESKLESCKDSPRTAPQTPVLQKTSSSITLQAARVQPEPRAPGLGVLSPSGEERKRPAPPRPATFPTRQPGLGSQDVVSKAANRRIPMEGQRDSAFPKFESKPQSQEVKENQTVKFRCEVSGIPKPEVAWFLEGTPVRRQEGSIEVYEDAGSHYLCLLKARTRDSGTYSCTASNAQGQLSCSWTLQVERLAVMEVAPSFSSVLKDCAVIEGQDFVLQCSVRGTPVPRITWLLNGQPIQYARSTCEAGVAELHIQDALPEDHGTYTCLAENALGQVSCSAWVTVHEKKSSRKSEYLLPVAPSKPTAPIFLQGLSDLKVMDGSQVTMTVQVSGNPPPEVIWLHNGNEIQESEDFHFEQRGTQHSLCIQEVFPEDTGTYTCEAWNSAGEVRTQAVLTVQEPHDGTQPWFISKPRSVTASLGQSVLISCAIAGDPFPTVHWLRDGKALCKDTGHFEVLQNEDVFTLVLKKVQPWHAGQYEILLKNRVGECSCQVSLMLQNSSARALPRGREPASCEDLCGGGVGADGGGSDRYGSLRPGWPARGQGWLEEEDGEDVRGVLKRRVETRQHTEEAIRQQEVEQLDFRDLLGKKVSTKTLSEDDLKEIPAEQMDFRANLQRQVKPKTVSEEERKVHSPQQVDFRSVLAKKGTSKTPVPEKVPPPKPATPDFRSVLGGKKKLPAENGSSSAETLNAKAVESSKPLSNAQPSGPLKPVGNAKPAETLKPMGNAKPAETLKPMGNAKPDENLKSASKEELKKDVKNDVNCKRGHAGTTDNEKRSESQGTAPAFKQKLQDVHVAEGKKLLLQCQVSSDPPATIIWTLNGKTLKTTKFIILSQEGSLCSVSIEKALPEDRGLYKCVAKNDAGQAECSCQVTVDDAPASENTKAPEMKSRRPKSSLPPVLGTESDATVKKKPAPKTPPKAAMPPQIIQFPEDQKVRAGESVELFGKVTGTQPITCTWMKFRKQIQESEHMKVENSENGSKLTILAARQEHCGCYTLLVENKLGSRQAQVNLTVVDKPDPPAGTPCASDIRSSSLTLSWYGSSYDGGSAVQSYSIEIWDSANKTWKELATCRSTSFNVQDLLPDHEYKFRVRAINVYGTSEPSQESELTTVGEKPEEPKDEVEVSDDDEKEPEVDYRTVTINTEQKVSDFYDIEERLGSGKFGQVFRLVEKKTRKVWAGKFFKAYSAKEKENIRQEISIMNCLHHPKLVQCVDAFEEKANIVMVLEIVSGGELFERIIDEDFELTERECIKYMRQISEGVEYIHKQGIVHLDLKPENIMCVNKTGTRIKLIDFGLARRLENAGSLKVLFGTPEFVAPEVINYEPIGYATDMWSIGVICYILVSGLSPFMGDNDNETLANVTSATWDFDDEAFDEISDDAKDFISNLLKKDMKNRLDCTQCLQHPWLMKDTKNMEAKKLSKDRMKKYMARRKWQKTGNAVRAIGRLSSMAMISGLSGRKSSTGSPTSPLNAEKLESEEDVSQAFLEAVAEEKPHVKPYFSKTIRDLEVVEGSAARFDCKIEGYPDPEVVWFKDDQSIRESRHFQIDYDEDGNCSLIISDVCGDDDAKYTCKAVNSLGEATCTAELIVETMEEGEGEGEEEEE
Sequence of UniProt Q8NFD2 (whole entry, looked up): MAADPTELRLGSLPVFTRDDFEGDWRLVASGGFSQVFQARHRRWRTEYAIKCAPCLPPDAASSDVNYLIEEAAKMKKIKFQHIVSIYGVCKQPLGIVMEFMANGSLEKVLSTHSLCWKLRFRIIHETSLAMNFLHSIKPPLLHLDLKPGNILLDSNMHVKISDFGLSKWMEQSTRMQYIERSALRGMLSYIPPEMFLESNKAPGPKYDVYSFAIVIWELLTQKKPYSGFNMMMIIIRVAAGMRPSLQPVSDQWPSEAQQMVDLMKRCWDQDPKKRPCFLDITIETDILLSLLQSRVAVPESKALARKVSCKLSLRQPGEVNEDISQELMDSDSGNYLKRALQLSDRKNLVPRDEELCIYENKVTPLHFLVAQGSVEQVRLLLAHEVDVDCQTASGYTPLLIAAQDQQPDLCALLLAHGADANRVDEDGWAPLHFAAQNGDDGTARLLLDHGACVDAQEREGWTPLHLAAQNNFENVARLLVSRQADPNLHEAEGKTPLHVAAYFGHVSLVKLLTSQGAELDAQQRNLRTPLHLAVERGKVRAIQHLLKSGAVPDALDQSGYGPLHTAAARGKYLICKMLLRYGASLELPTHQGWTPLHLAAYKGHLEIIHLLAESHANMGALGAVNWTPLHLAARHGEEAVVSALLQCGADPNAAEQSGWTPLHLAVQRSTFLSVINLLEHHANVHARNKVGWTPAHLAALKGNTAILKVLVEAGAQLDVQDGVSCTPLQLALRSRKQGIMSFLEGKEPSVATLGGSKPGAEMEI
Sequence of UniProt Q6ZWH5 (whole entry, looked up): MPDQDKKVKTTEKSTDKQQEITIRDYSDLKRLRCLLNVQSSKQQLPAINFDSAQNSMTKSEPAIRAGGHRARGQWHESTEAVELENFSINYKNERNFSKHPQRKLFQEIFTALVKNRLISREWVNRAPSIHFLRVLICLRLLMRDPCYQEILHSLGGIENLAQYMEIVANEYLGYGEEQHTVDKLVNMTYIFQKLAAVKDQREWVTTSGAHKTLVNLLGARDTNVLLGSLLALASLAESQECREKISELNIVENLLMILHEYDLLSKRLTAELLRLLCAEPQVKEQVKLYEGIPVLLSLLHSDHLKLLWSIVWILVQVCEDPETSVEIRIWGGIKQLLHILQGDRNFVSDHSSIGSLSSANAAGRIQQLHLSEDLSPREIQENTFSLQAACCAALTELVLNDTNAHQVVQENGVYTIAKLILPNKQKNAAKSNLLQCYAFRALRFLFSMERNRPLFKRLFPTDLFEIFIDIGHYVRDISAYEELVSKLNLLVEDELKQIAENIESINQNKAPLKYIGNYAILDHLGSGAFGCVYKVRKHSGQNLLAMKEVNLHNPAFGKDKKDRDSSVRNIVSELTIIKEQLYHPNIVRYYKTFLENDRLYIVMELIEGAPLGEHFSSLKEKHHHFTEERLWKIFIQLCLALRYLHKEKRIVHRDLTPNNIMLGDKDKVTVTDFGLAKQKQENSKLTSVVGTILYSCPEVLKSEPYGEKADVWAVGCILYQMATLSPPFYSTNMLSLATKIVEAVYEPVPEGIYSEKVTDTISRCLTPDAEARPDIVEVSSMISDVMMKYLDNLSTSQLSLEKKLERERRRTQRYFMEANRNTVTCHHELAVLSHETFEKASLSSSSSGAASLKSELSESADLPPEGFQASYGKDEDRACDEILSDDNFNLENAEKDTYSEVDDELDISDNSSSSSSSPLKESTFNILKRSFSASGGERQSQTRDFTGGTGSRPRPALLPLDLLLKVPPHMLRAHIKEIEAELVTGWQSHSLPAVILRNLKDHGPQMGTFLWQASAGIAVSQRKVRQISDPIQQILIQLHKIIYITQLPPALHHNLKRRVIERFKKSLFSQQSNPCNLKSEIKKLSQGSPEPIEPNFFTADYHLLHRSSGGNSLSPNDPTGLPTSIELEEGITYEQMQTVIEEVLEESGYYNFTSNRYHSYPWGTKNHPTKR
Sequence of UniProt Q8TDV5 (whole entry, looked up): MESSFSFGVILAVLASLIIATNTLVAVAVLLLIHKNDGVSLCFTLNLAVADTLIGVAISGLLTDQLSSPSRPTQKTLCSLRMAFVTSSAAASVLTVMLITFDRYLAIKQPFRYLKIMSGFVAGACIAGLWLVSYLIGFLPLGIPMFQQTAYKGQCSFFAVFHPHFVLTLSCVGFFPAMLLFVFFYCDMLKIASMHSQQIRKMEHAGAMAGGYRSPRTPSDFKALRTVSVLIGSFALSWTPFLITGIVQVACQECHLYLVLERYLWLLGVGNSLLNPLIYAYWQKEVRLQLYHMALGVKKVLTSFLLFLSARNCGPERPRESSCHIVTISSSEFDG

| SMILES | target | test | test system | setting | scale | measurement | value |
| --- | --- | --- | --- | --- | --- | --- | --- |
| C[C@H]1CN(c2n[nH]c3nc(N[C@H]4CC[C@H](NS(=O)(=O)CCC(F)(F)F)CC4)ncc23)CCO1 | MYLK (Homo sapiens, UniProt Q15746) | inhibitor, Kinobeads competition profiling | – | 20 µM | baseline: vehicle | relative abundance | 1.09 |
| O=C(c1ccc(Cl)cc1)N1CCN2C(=O)N(OC(=O)N3CCOc4ccccc43)C(=O)C2C1 (stereo not drawn) | CTSA (Homo sapiens, UniProt P10619) | enzyme activity, inhibitor, MS-based ABPP | SW-620 in situ | 10 µM, 2 h, 37 °C | baseline: compound over DMSO, lower = stronger inhibition | median ratio | 1.07 |
| [2H]c1c([2H])c([C@]2([2H])CCCN2C(=O)C(C)(C)Oc2ccc3cn[nH]c3c2)c([2H])c([2H])c1C([2H])([2H])[2H] | NEK10 (Homo sapiens, UniProt Q6ZWH5) | KINOMEscan | – | 1 µM | baseline: DMSO control | remaining binding | 100% |
| CC12CCC(CC1)C(C)(C)O2 | 1,8-cineole 2-endo-monooxygenase (cinA, Citrobacter braakii, UniProt Q8VQF6, N242A) | product per NADPH consumed, substrate, GC-MS | – | N242A enzyme variant | – | coupling efficiency | 36.4% |
| O=C(Nc1cnccc1Cl)N1CCN(Cc2ccc3c(c2)OC(F)(F)O3)CC1 | ryanodine receptor RyR3, rat | binding | – | 50 µM, added: [3H]ryanodine | – | inhibition | 2% |
| Cc1nn(C)cc1-c1nc2c(N3CCN(Cc4ccc(Cl)cc4)CC3)c(Cl)cnc2[nH]1 | ANKK1 (Homo sapiens, UniProt Q8NFD2) | KINOMEscan | – | 1 µM | baseline: DMSO control | remaining binding | 89% |
| O=C(Nc1cccnn1)N1CCC(=Cc2cccc(Oc3ccc(C(F)(F)F)cn3)c2)CC1 | IP3 receptor, rat | binding | – | 10 µM, added: [3H]IP3 | – | inhibition | -1% |
| CN1CCN(c2cc(-c3ccncc3)c(-c3ccc4ccccc4c3)nn2)CC1 | GPR119 (Homo sapiens, UniProt Q8TDV5) | agonist, FLIPR | – | 12.5 µM | – | activation | 11.9% |
| COc1ccc(N2C(=O)N(c3c(C)cccc3Cl)Cc3cnc(Nc4ccc(C5CCN(C)CC5)cc4OC)nc32)nc1 | RAF1 (Homo sapiens, UniProt P04049) | kinase activity, inhibitor | – | 0.5 µM, kinase CRAF | – | inhibition | 14% |
